Results collected from several papers.
Organism: Pseudomonas aeruginosa

SMILES | assay | system | conditions | MIC
CC[C@H](C)[C@H](NC(=O)[C@@H](NC(=O)[C@H](CCCCN)NC(=O)[C@H](CC(=O)O)NC(=O)[C@H](CCCCN)NC(=O)[C@H](Cc1ccccc1)NC(=O)[C@H](Cc1ccccc1)NC(=O)[C@H](CO)NC(=O)[C@H](CCCCN)NC(=O)[C@H](CCSC)NC(=O)[C@H](CCCCN)NC(=O)[C@H](CCCCN)NC(=O)[C@H](Cc1c[nH]c2ccccc12)NC(=O)[C@@H](N)Cc1ccccc1)C(C)C)C(=O)N1CCC[C@H]1C(=O)N[C@@H](CCCCN)C(=O)N[C@H](C(=O)N[C@@H](CCC(N)=O)C(=O)N[C@@H](CCC(N)=O)C(=O)N[C@@H](C)C(=O)N[C@@H](Cc1ccc(O)cc1)C(=O)N[C@@H](CO)C(=O)N[C@@H](CC(C)C)C(=O)N[C@@H](Cc1ccc(O)cc1)C(=O)N[C@@H](CC(N)=O)C(=O)N[C@@H](CCCCN)C(=O)N[C@@H](CC(C)C)C(=O)N[C@@H](CCC(N)=O)C(=O)N[C@@H](Cc1c[nH]cn1)C(=O)N[C@@H](CCCCN)C(=O)N[C@@H](CC(C)C)C(N)=O)C(C)C | broth microdilution | ATCC 27853 |  | 1.56 to 6.25 µM
CC(C)[C@@H]1NC(=O)[C@@H]2CCCN2C(=O)[C@@H](C)NC(=O)[C@H](CO)NC(=O)[C@H](C)NC(=O)[C@H](C(C)(C)C)NC(=O)[C@H](CCO)NC(=O)[C@H](Cc2c[nH]c3ccccc23)NC(=O)[C@H](CCO)NC(=O)[C@@H](CCN)NC(=O)[C@H](CCC(N)=O)NC(=O)[C@H](CCN)NC(=O)[C@H](Cc2ccc(O)cc2)NC(=O)[C@H]([C@@H](C)O)NC1=O | broth microdilution | NDM-1, CAMHB with polysorbate-80 | 16 h | > 64 µg/mL
CC[C@@H](C)[C@@H](NC(=O)[C@@H](C)NC(=O)[C@@H](CCCCN)NC(=O)[C@@H](CC(C)C)NC(=O)[C@@H](C)NC(=O)[C@H](NC(=O)[C@@H](Cc1c[nH]cn1)NC(=O)[C@@H](CC(C)C)NC(=O)[C@H](NC(=O)[C@H](NC(=O)[C@@H](CCCCN)NC(=O)[C@@H](CCCCN)NC(=O)[C@@H](C)NC(=O)[C@@H](CO)NC(=O)[C@@H](CCCCN)NC(=O)[C@@H](Cc1ccccc1)NC(=O)[C@H](NC(=O)[C@@H](CCCCN)NC(=O)[C@@H](CC(C)C)NC(=O)[C@@H](Cc1ccccc1)NC(=O)[C@@H](CO)NC(=O)[C@@H](CCCCN)NC(=O)[C@@H](Cc1c[nH]c2ccccc12)NC(=O)[C@@H](CCCCN)NC(C)=O)[C@H](C)O)[C@H](C)O)C(C)C)[C@H](C)O)C(=O)N[C@H](CO)C(=O)N[C@H](CO)C(N)=O |  | PAO1 |  | 8 µg/mL
CCCCCC/C=C\CCCCCCC[C@@H](O)Cc1cc(O)cc(O)c1 | broth microdilution | PAO1 chloramphenicol-resistant | 37 °C | > 64 µg/mL
CC[C@H](C)[C@H](NC(=O)[C@H](C)NC(=O)[C@@H](NC(=O)[C@H](CC(=O)O)NC(=O)[C@H](CCCCN)NC(=O)[C@H](CO)NC(=O)[C@@H](NC(=O)[C@H](CC(N)=O)NC(=O)[C@H](C)NC(=O)[C@@H](NC(=O)[C@H](CCC(=O)O)NC(=O)[C@H](CCCCN)NC(=O)[C@@H](NC(=O)[C@@H](NC(=O)[C@H](Cc1c[nH]cn1)NC(=O)[C@H](CCCCN)NC(=O)[C@@H](NC(=O)[C@H](CCCCN)NC(=O)[C@H](CCCCN)NC(=O)[C@@H](NC(=O)[C@H](CC(C)C)NC(=O)[C@H](CCCCN)NC(=O)[C@H](CC(N)=O)NC(=O)[C@H](Cc1ccccc1)NC(=O)[C@H](CCCNC(=N)N)NC(=O)[C@H](CCCCN)NC(=O)[C@H](CCCNC(=N)N)NC(=O)[C@H](Cc1ccccc1)NC(=O)CN)C(C)C)C(C)C)[C@@H](C)O)[C@@H](C)CC)[C@@H](C)O)C(C)C)C(C)C)C(=O)N[C@H](C(=O)N[C@@H](C)C(=O)NCC(=O)N[C@@H](CO)C(=O)NCC(=O)N[C@H](C(=O)N[C@@H](C)C(=O)N[C@H](C(=O)NCC(=O)N[C@@H](C)C(=O)N[C@@H](C)C(=O)N[C@@H](CCSC)C(N)=O)C(C)C)C(C)C)C(C)C |  | isolate RKI 93/12, CAMHB |  | 8 µg/mL
O=C(O)CC[C@@H]1NC(=O)[C@H](CCC(=O)O)NC(=O)[C@H](CCC(=O)O)NC(=O)[C@H](Cc2c[nH]c3ccccc23)NC(=O)[C@H](Cc2c[nH]c3ccccc23)NC(=O)[C@H](Cc2c[nH]c3ccccc23)NC(=O)[C@H](CCC(=O)O)NC1=O | broth microdilution | PAO1 | 37 °C | > 134 µg/mL
CCCCCCCCCCCCCC(=O)N[C@H](CCN)C(=O)N[C@@H]1C(=O)N[C@@H](CCN)C(=O)N[C@@H](CC(C)C)C(=O)N[C@@H](CCN)C(=O)N[C@H](Cc2ccccc2)C(=O)N[C@@H](CC(C)C)C(=O)N[C@@H](CCN)C(=O)N[C@H](Cc2ccc(O)cc2)C(=O)N[C@@H](C(C)C)C(=O)N[C@@H](CC(=O)O)C(=O)O[C@@H]1C | broth microdilution | BNCC 186070 |  | 8 µg/mL
CC(C)[C@H](NC(=O)[C@H](CCCCN)NC(=O)[C@H](CCCNC(=N)N)NC(=O)CNC(=O)[C@H](C)NC(=O)[C@H](CC(N)=O)NC(=O)[C@H](CCCNC(=N)N)NC(=O)[C@@H](NC(=O)[C@H](CCCCN)NC(=O)[C@H](CC(=O)O)NC(=O)[C@@H](NC(=O)[C@@H](NC(=O)[C@H](CCCNC(=N)N)NC(=O)[C@H](CCCNC(=N)N)NC(=O)[C@H](Cc1c[nH]c2ccccc12)NC(=O)[C@H](Cc1c[nH]c2ccccc12)NC(=O)CN)[C@@H](C)O)C(C)C)C(C)C)C(=O)O |  | CMCC 10104 | 18 h, 37 °C | > 256 µg/mL
NCCCC[C@H](NC(=O)[C@@H]1CSCC(=O)N[C@@H](CCCCN)C(=O)N[C@@H](Cc2ccccc2)C(=O)N[C@@H](CCCCN)C(=O)NCCCC[C@@H]2NC(=O)[C@H](CCCCN)NC(=O)[C@H](Cc3ccccc3)NC(=O)[C@H](CCCCN)NC(=O)CSC[C@H](NC(=O)[C@H](Cc3ccccc3)NC(=O)[C@H](Cc3ccccc3)NC(=O)[C@H](CCCCN)NC2=O)C(=O)N[C@@H](Cc2ccccc2)C(=O)N[C@@H](Cc2ccccc2)C(=O)N[C@@H](Cc2ccccc2)C(=O)N1)C(N)=O |  | PAO1 | 18 h | > 256 µg/mL
CC[C@H](C)[C@H](NC(=O)[C@H](CCCCN)NC(=O)[C@@H]1CCCN1C(=O)[C@@H](NC(=O)[C@H](CC(C)C)NC(=O)[C@H](CCCCN)NC(=O)[C@H](CC(C)C)NC(=O)[C@@H](NC(=O)[C@H](CO)NC(=O)CNC(=O)[C@H](Cc1ccccc1)NC(=O)[C@@H](N)Cc1ccccc1)C(C)C)[C@@H](C)CC)C(=O)N[C@@H](CC(C)C)C(N)=O | broth microdilution |  |  | > 100 µM
CC[C@H](C)[C@H](NC(=O)[C@H](CCCNC(=N)N)NC(=O)[C@@H]1CCCN1C(=O)[C@H](CCCNC(=N)N)NC(=O)[C@H](Cc1ccccc1)NC(=O)[C@H](Cc1c[nH]cn1)NC(=O)[C@H](CCCNC(=N)N)NC(=O)[C@H](CC(C)C)NC(=O)[C@H](CCCCN)NC(=O)CNC(=O)[C@H](CC(C)C)NC(=O)[C@H](Cc1ccccc1)NC(=O)[C@H](CCCNC(=N)N)NC(=O)CNC(=O)[C@H](Cc1ccccc1)NC(=O)[C@H](CCCNC(=N)N)NC(=O)CNC(=O)[C@H](CCCNC(=N)N)NC(=O)[C@H](CCC(N)=O)NC(=O)[C@@H](NC(=O)[C@@H](N)CC(C)C)[C@@H](C)CC)C(=O)N[C@@H](CCCCN)C(=O)N[C@@H](Cc1ccccc1)C(=O)N[C@@H](CCCCN)C(=O)NCC(=O)N[C@@H](CCCCN)C(=O)N[C@@H](C)C(=O)NCC(=O)N[C@@H](Cc1c[nH]c2ccccc12)C(=O)N[C@H](C(=O)N[C@H](C(=O)NCC(=O)O)C(C)C)[C@@H](C)O | broth microdilution | ATCC 27853 | 16 to 20 h, 37 °C | > 25 µM
CC(C)C[C@@H]1NC(=O)[C@H](CCCCN)NC(=O)CSC[C@@H]2NC(=O)[C@H](CC(C)C)NC(=O)[C@H](CC(C)C)NC(=O)[C@H](CCCCN)NC(=O)[C@H](CCCCNC(=O)[C@H](CCCCN)NC1=O)NC(=O)[C@H](CCCCN)NC(=O)[C@H](CC(C)C)NC(=O)[C@H](CCCCN)NC(=O)CSC[C@@H](C(=O)N[C@@H](CCCCN)C(N)=O)NC(=O)[C@H](CC(C)C)NC(=O)[C@H](CC(C)C)NC(=O)[C@H](CC(C)C)NC2=O |  | PAO1 | 18 h | 256 µg/mL

Repeated from above:
SMILES | assay | system | conditions | MIC
CC[C@H](C)[C@H](NC(=O)[C@@H](NC(=O)[C@H](CCCCN)NC(=O)[C@H](CC(=O)O)NC(=O)[C@H](CCCCN)NC(=O)[C@H](Cc1ccccc1)NC(=O)[C@H](Cc1ccccc1)NC(=O)[C@H](CO)NC(=O)[C@H](CCCCN)NC(=O)[C@H](CCSC)NC(=O)[C@H](CCCCN)NC(=O)[C@H](CCCCN)NC(=O)[C@H](Cc1c[nH]c2ccccc12)NC(=O)[C@@H](N)Cc1ccccc1)C(C)C)C(=O)N1CCC[C@H]1C(=O)N[C@@H](CCCCN)C(=O)N[C@H](C(=O)N[C@@H](CCC(N)=O)C(=O)N[C@@H](CCC(N)=O)C(=O)N[C@@H](C)C(=O)N[C@@H](Cc1ccc(O)cc1)C(=O)N[C@@H](CO)C(=O)N[C@@H](CC(C)C)C(=O)N[C@@H](Cc1ccc(O)cc1)C(=O)N[C@@H](CC(N)=O)C(=O)N[C@@H](CCCCN)C(=O)N[C@@H](CC(C)C)C(=O)N[C@@H](CCC(N)=O)C(=O)N[C@@H](Cc1c[nH]cn1)C(=O)N[C@@H](CCCCN)C(=O)N[C@@H](CC(C)C)C(N)=O)C(C)C | broth microdilution | ATCC 27853 |  | 1.56 to 6.25 µM
